Assay results from different studies.
Each line is one published result; not all experiments were run side by side. Numbers after ± are the reported error.
SLCO1B3: Solute carrier organic anion transporter family member 1B3 (SLCO1B3, Homo sapiens, UniProt Q9NPD5)
Chain of UniProt Q9NPD5 (whole entry, looked up): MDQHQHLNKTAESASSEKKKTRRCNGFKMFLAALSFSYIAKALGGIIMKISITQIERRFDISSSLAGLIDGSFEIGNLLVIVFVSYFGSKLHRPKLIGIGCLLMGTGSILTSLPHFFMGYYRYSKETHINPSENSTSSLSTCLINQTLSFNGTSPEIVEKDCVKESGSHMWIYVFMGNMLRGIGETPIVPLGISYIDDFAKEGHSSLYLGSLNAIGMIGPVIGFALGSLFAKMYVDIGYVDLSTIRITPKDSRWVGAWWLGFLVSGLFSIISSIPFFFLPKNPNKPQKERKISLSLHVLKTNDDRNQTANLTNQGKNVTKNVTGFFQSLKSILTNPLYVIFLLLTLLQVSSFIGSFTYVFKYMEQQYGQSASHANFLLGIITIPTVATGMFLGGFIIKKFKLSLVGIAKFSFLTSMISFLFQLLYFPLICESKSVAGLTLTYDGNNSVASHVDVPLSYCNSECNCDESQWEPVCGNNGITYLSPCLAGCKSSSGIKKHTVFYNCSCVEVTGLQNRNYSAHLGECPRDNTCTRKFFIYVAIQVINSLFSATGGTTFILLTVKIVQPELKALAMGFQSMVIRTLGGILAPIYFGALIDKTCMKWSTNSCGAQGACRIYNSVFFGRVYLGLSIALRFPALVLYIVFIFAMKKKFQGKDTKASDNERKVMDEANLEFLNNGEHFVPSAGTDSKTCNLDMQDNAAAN
CACNA1C: Voltage-dependent L-type calcium channel subunit alpha-1C (CACNA1C, Homo sapiens, UniProt Q13936)
Chain of UniProt Q13936 (whole entry, looked up): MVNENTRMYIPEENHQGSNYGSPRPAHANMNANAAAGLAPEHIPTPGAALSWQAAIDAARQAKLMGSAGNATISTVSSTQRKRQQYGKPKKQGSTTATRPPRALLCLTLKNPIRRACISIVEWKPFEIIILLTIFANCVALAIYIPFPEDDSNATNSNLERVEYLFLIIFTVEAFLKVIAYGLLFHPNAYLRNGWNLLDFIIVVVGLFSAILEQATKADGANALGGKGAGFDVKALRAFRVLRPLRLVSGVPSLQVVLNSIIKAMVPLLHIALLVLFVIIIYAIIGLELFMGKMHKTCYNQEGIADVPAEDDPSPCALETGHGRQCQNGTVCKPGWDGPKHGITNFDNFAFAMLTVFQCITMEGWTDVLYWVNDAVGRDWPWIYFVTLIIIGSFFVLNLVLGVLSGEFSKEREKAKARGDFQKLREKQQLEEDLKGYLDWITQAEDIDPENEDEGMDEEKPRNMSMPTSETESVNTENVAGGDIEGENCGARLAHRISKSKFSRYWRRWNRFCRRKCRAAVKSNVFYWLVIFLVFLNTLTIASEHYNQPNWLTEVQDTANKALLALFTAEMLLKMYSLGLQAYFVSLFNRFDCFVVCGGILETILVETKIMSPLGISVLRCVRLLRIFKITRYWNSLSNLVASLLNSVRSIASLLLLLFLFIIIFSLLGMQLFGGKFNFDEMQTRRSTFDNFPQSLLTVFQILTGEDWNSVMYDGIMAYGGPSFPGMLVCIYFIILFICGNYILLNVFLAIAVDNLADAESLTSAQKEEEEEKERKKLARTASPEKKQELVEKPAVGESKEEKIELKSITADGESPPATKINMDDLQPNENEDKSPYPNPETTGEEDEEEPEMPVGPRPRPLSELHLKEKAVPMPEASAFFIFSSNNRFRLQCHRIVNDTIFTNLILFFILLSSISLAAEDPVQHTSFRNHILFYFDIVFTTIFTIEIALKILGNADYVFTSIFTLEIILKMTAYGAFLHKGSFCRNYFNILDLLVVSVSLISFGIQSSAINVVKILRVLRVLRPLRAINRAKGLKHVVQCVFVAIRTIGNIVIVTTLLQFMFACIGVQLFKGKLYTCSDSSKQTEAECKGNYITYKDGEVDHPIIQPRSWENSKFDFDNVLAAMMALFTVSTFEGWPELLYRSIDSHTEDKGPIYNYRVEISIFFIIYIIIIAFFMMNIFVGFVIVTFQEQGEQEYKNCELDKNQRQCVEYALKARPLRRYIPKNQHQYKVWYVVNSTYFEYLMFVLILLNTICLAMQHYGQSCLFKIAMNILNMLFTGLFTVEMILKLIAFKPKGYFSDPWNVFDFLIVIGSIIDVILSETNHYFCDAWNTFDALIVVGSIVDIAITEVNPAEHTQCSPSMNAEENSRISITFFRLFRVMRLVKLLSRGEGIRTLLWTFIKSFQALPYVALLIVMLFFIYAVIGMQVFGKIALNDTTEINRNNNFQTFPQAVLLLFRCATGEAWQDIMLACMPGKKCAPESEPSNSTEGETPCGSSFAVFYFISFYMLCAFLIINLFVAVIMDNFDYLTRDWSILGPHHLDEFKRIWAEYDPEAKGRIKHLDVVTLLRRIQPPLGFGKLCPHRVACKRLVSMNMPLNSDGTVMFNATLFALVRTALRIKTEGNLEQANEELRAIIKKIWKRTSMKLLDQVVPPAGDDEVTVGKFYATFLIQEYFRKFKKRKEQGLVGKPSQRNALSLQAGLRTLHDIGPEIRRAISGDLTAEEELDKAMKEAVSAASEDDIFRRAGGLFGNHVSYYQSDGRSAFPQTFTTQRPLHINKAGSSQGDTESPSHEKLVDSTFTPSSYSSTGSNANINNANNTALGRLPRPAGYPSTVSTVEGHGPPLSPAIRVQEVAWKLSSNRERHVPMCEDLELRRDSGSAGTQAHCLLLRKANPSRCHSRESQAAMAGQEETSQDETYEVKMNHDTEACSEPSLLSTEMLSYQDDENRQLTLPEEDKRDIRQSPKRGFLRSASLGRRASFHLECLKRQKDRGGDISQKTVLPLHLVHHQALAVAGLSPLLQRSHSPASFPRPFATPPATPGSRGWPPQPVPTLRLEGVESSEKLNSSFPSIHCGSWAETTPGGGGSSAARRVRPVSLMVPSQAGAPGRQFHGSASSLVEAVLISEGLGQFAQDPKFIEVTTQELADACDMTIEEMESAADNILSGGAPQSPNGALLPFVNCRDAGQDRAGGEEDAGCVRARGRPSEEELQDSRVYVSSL
SLC22A2: Solute carrier family 22 member 2 (SLC22A2, Homo sapiens, UniProt O15244)
Chain of UniProt O15244 (whole entry, looked up): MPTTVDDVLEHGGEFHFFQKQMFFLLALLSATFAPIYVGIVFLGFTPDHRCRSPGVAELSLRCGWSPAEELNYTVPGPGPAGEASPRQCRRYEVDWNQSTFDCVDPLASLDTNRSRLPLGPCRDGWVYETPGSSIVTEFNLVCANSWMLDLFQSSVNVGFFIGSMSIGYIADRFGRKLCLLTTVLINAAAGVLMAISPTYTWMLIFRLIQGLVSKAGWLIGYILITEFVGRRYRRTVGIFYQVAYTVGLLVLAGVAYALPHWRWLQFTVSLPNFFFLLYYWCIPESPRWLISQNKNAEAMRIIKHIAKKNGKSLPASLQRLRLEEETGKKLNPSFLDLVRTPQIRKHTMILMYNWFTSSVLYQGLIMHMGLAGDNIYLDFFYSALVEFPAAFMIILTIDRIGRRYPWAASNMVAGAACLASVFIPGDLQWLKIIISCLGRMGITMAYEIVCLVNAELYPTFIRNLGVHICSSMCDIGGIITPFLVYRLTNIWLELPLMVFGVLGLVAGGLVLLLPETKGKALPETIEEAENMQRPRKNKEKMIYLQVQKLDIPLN
Chain of UniProt Q07011 (whole entry, looked up): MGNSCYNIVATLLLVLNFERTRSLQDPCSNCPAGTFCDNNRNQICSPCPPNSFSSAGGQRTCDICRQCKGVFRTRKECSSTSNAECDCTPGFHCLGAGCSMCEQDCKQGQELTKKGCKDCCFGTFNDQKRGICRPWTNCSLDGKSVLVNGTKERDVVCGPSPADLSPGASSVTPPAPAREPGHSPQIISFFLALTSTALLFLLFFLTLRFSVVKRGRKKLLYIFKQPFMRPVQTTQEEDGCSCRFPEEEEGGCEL
Chain of UniProt O15439 (whole entry, looked up): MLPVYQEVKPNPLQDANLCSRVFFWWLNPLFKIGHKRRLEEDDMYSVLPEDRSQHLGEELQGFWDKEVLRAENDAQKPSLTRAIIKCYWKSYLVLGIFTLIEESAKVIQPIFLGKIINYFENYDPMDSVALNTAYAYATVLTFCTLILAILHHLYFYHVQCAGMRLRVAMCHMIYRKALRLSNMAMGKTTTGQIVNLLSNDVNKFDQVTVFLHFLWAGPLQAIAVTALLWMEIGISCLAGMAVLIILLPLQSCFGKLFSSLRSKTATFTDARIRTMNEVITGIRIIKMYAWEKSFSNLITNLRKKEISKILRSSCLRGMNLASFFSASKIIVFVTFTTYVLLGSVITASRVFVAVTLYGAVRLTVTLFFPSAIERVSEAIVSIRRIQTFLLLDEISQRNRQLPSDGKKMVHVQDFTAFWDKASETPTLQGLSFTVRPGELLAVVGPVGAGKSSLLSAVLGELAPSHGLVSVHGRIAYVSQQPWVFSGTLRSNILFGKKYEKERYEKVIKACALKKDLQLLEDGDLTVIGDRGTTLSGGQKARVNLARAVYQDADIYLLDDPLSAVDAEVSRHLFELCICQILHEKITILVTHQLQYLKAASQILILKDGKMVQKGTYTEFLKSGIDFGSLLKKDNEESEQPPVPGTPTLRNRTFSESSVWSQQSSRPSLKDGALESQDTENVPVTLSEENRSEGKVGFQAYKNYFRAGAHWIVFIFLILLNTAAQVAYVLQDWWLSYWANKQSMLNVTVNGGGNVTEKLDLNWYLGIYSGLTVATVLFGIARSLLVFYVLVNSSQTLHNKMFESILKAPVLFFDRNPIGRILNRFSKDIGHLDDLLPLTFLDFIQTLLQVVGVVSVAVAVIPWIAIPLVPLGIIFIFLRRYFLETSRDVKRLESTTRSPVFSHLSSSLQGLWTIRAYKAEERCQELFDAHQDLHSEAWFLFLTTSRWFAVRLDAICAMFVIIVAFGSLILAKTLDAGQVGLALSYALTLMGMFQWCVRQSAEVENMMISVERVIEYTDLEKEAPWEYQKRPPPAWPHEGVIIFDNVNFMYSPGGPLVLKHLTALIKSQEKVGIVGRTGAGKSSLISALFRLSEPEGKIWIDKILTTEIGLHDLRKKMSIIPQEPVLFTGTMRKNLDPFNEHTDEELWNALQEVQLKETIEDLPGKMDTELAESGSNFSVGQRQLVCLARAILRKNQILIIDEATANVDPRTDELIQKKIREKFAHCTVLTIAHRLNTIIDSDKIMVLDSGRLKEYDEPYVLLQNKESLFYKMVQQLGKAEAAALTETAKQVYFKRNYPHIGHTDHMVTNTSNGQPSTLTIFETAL

SMILES | target or system | assay | system | conditions | how to read | quantity | value
CC[C@H](C)[C@H](NC(=O)[C@H](CO)NC(=O)[C@H](Cc1ccc(O)cc1)NC(=O)[C@H](Cc1ccc(O)cc1)NC(=O)[C@H](CC(N)=O)NC(=O)CNC(=O)[C@H](CO)NC(=O)[C@H](Cc1ccc(O)cc1)NC(=O)[C@H](CO)NC(=O)[C@H](CO)NC(=O)[C@H](CC(N)=O)NC(=O)COCCOCCNC(=O)CN1CCN(CC(=O)O)CCN(CC(=O)O)CCN(CC(=O)O)CC1)C(=O)N[C@@H](CC(C)C)C(N)=O [copper-64 labelled] |  | dynamic PET | mouse, tamoxifen-induced PDAC, tumor | intravenous, 0.1 µg/mouse, 1.9 min |  | tumour uptake | 17.7 %ID/mL
CCN(CC)CCOc1ccc(-c2nnn(Cc3ccc(OC)cc3)c2N)cc1 | Solute carrier family 22 member 6 (SLC22A6, Homo sapiens, UniProt Q4U2R8) | transporter uptake, inhibitor |  |  |  | IC50 | > 100 µM
CC(CCC(=O)NCC(=O)O)C1CCC2C3CCC4CC(OC5OC(C(=O)O)C(O)C(O)C5O)CCC4(C)C3CC(O)C12C (centres unmarked) | ATP-binding cassette sub-family C member 4 (ABCC4, Homo sapiens, UniProt O15439) | substrate, membrane vesicle uptake |  | 0.2 µM, 10 min | reference: ATP over AMP | vesicle uptake ratio | 3.9 ± 0.4
O=C1NC2(CC2)COc2ncc(F)cc2[C@H]2COCCN2c2ccn3ncc1c3n2 |  |  | Sprague-Dawley rat, female, serum | oral, 2.5 mg/kg/day, end of treatment, 4-week subacute toxicity |  | serum total protein | 60.9 ± 4.4 g/L
O=C(CN1C(=O)C2(CCN(C(=O)c3cnc4[nH]ncc4c3)CC2)c2c(F)cccc21)NCC(F)(F)F | Cytochrome P450 3A4 (CYP3A4, Homo sapiens, UniProt P08684) | enzyme activity, inhibitor |  |  |  | IC50 | > 50 µM
CNC(=O)C1CCCN(C(=O)C2CC3CCC2N3C(=O)[C@@H]2C[C@@H](O)CN2C(=O)NCc2cccc(Cl)c2F)C1 (mixture of isomers) | CYP3A4 (human) | inhibitor, time-dependent inhibition |  | 16.7 µM, preincubated with NADPH, together with: midazolam substrate | reference: negative control | remaining activity | 100%
CC(C)=CCC/C(C)=C\CCn1cc(CC(C)(P(=O)(O)O)P(=O)(O)O)nn1 | SLCO1B3 |  | OATP1B3-transfected cells | 50 µM, 5 min, pH 7.4 | reference: mock-transfected cells | cellular uptake | 1.5 fold
CCCC[C@@H]1NC(=O)[C@H](Cc2ccc(O)cc2)NC(=O)[C@@H]2CCCN2C(=O)[C@H](CC(=O)O)NC(=O)[C@H](C)NC(=O)[C@H](Cc2ccccc2)NC(=O)[C@@H]2CSCCC(=O)N3CN(CN(C3)C(=O)CCSC[C@@H](C(=O)N[C@@H](CNC(=O)CCOCCOCCOCCN(CCOCCOCCOCCn3cc(CCC(=O)NCCC(=O)N[C@H]4CSCCC(=O)N5CN6CN(C5)C(=O)CCSC[C@H](NC(=O)[C@@H](CC(=O)O)NC(=O)[C@H](Cc5cccc7ccccc57)NC(=O)[C@@H]5CCCN5C4=O)C(=O)N[C@@H](CCSC)C(=O)N[C@@H](CCCCNC(=N)N)C(=O)N[C@@H](CC(=O)O)C(=O)N[C@@H](Cc4c[nH]c5ccccc45)C(=O)N[C@@H](CO)C(=O)N[C@@H]([C@@H](C)O)C(=O)N4CCC[C@H]4C(=O)N4C[C@H](O)C[C@H]4C(=O)N[C@@H](Cc4c[nH]c5ccccc45)C(=O)N[C@H](C(N)=O)CSCCC6=O)nn3)CCOCCOCCOCCn3cc(CCC(=O)NCCC(=O)N[C@H]4CSCCC(=O)N5CN6CN(C5)C(=O)CCSC[C@H](NC(=O)[C@@H](CC(=O)O)NC(=O)[C@H](Cc5cccc7ccccc57)NC(=O)[C@@H]5CCCN5C4=O)C(=O)N[C@@H](CCSC)C(=O)N[C@@H](CCCCNC(=N)N)C(=O)N[C@@H](CC(=O)O)C(=O)N[C@@H](Cc4c[nH]c5ccccc45)C(=O)N[C@@H](CO)C(=O)N[C@@H]([C@@H](C)O)C(=O)N4CCC[C@H]4C(=O)N4C[C@H](O)C[C@H]4C(=O)N[C@@H](Cc4c[nH]c5ccccc45)C(=O)N[C@H](C(N)=O)CSCCC6=O)nn3)C(N)=O)NC1=O)C(=O)CCSC[C@H](NC(C)=O)C(=O)N[C@@H](CC(C)(C)C)C(=O)N1CCC[C@H]1C(=O)N[C@@H](CCC(=O)O)C(=O)N[C@H](C)C(=O)N1CCC[C@H]1C(=O)N[C@@H](Cc1ccc(O)cc1)C(=O)N2 | Tumor necrosis factor receptor superfamily member 9/Nectin-4 (Homo sapiens, UniProt Q07011+Q96NY8) | reporter gene, agonist, luciferase reporter | CD137 Jurkat reporter with HT-1376 | 6 h, geometric mean | reference: wells without compound | Emax | 21 fold
CC12CCC3C(CCC4CC(O)CCC43C)C1CCC2C#N (centres unmarked) | CACNA1C | ion current, blocker, cell-based |  |  |  | IC50 | 10.7 µM
CC(C)(C)C(=O)OCOP(=O)(OCOC(=O)C(C)(C)C)C1CCCN(O)C1=O (centres unmarked) | U-251 |  |  |  |  | log LC50 | > -4 log M
CC(C)C[C@H](NC(=O)[C@H](CC(C)C)NC(=O)[C@H](CCCCN)NC(=O)[C@H](Cc1ccccc1)NC(=O)[C@@H](NC(=O)[C@H](CCCNC(=N)N)NC(=O)[C@@H](N)CCCCN)C(C)C)C(=O)N[C@@H](CCCCN)C(=O)N[C@@H](CCCNC(=N)N)C(=O)N[C@@H](Cc1ccc(O)cc1)C(=O)N[C@@H](Cc1c[nH]c2ccccc12)C(=O)N[C@@H](CCCNC(=N)N)C(=O)N[C@@H](CCC(N)=O)C(=O)N[C@@H](CC(C)C)C(=O)N[C@@H](CCCCN)C(=O)N[C@@H](CCCCN)C(=O)N1CCC[C@H]1C(=O)N[C@H](C(=O)N[C@@H](CCCNC(=N)N)C(=O)NCCOCCOCC(=O)O)C(C)C | Chymotrypsinogen A (Bos taurus, UniProt P00766) | HPLC |  | 1 mg/mL, 30 min, 37 °C, together with: enzyme to peptide 50:1 |  | degradation | 11 to 15%
CSc1nc2[nH]nc([N+](=O)[O-])c(=O)n2n1 | SLC22A2 | transport, inhibitor | transiently transfected cells | 100 µM, 10 (unit not given), together with: metformin |  | inhibition | 21.1%
COc1ccccc1-c1n[nH]c2nc(NC3CCN(C(=O)Cc4ccc(F)cc4F)CC3)ncc12 |  | bead binding, competition bead pull-down, measured: LINJ.31.2210 | Leishmania donovani extract | 10 µM | reference: vehicle | relative abundance | 0.9
CC(=O)NCCCC[C@@H]1NC(=O)[C@H](Cc2c[nH]c3c(C)cccc23)NC(=O)[C@H]([C@@H](C)O)NC(=O)[C@H](CC(N)=O)NC(=O)[C@@H](NC(C)=O)C(C)(C)SSC(C)(C)[C@@H](C(=O)N[C@@H](Cc2ccc(OCCN)cc2)C(=O)N[C@@H](Cc2ccc3ccccc3c2)C(=O)NC2(C(=O)N[C@@H](CCC(=O)O)C(=O)N[C@@H](CC(N)=O)C(=O)N[C@@H](Cc3cccnc3)C(=O)N(C)CC(N)=O)CCOCC2)NC1=O | Broad substrate specificity ATP-binding cassette transporter ABCG2 (ABCG2, Homo sapiens, UniProt Q9UNQ0) | transport, inhibitor | LLC-PK1 expressing ABCG2 | 24.8 µM, 90 min, together with: [3H]prazosin |  | efflux ratio | 9.22
CNC(=O)C1OC(n2cnc3c(NCc4cccc(I)c4)ncnc32)C(O)C1O (centres unmarked) | SLC22A2 | transport, inhibitor | transiently transfected cells | 100 µM, 10 (unit not given), together with: metformin |  | inhibition | 68.3%
CCCCCn1ccc(C(=O)NC(C)(C)c2ccc(CNC(C)=O)cc2)n1 | CYP1A2 human | RT-qPCR, measured: CYP1A2 mRNA | HepaRG | concentration not given | reference: positive control | CYP induction | < 10%
Cc1ccc(OC[C@@H]2CCCN2C)cc1C(=O)N[C@H](C)c1cc(-c2cnn(C)c2)nc2ccccc12 | Vero E6 |  |  | 125 µM |  | viability | 8.1%
Cc1cc(Nc2nc(C[C@@]3(C(=O)O)CCN(Cc4cccc(Cl)c4F)[C@H](C)C3)cc(C)c2F)n[nH]1 | CACNA1C |  |  | 10 µM, safety pharmacology panel |  | inhibition | 6.43%
Cc1ccc(N2CC3CN(C)CC3C2)cc1C(=O)N[C@H](C)c1cc(-c2cnn(C)c2)nc2ccccc12 (some centres unmarked) | African green monkey cells |  |  | 31.25 µM |  | viability | 100%
Cc1cc(-c2ccc3ccccc3c2)nnc1NCCN1CCN(C)CC1 | SLCO1B3 | transporter uptake, inhibitor |  | 10 µM |  | inhibition | 18%
